Results pooled from the literature.
Protocols differ between the studies behind these lines. ± gives the spread as reported.
HLA class I histocompatibility antigen, A alpha chain: HLA class I histocompatibility antigen, A alpha chain (Homo sapiens, UniProt P04439)
gag-pol K653N reverse transcriptase: Gag-Pol polyprotein, reverse transcriptase (gag-pol, Human immunodeficiency virus type 1 group M subtype B, UniProt P04585, K653N)
gag-pol K653T reverse transcriptase: Gag-Pol polyprotein, reverse transcriptase (gag-pol, Human immunodeficiency virus type 1 group M subtype B, UniProt P04585, K653T)
Epithelial sodium channel subunit beta: Epithelial sodium channel subunit beta (Homo sapiens, UniProt P51168)

For `C[C@@H]1Cc2c(Cl)cc(C(=O)N[C@@H](Cc3ccccc3)C(=O)O)c(O)c2C(=O)O1`, the Jmax was 3.1 ± 0.9 pmol/cm2/min (Solute carrier family 22 member 11 (SLC22A11, Homo sapiens, UniProt Q9NSA0); substrate; CHO cells expressing human OAT4; 5 min, pH 7.4).
`AKNCRAPRK` has an ED50 of 20.3 µM (HLA class I histocompatibility antigen, A alpha chain; peptide binding, iTopia affinity; peptide).
`Cc1c(N2CC[C@@H](CN)C2)c(F)cc2c(=O)n(CCN)c(=O)n(C3CC3)c12`: “concentration giving linear DNA” 25 to 50 µM (DNA gyrase (gyrA/gyrB, Escherichia coli, UniProt P0AES4+P0AES6); DNA cleavage, poison).
`N[C@@H](C[C@]1(C(=O)O)C[C@H]2OC[C@@H](O)[C@@H](O)[C@H]2O1)C(=O)O` has an affinity decrease of roughly 7 fold (Glutamate receptor ionotropic, kainate 2 (Grik2, Rattus norvegicus, UniProt P42260, A518T); [3H]kainate displacement; baseline: wild-type GluK2).
With `Nc1ncnc2c1ncn2[C@H]1C[C@H](O)[C@@H](COP(=O)(O)OP(=O)(O)OP(=O)(O)O)O1` the Km was 413 ± 267 µM (gag-pol K653N reverse transcriptase; substrate; K66N mutant, with: G:A mismatched primer template).
The remaining activity of `CCOC(=O)CC(SP(=S)(OC)OC)C(=O)OCC` (centres unmarked) is reported as 105% (uncharacterized protein (Anopheles coluzzii, UniProt A0A6E8VQK1); enzyme activity, inhibitor; Sf9 cell homogenate; 4.545 µM, 0.1667 h, with: α-naphthyl acetate substrate; baseline: no inhibitor).
`Nc1ccn([C@H]2C[C@H](O)[C@@H](COP(=O)(O)OP(=O)(O)OP(=O)(O)O)O2)c(=O)n1` has a Km of 1620 ± 656 µM (gag-pol K653T reverse transcriptase; nucleotide misinsertion, steady-state kinetics; K66T mutant RT, with: opposite template T).
`NC(=O)c1c(N)sc2c1CCCCC2` — result for “lowest effective concentration”: 1.6 µM (Gag-Pol polyprotein, RT with RNA/DNA hybrid (gag-pol, Human immunodeficiency virus 1, UniProt P03366, E1077Q/T1072C); nucleoprotein complex dissociation, electrophoretic mobility shift).
`CC[C@H](C)[C@H](NC(=O)[C@H](CO)NC(=O)[C@H](CC(=O)O)NC(=O)[C@H](CC(C)C)NC(=O)[C@H](CCCCN)NC(=O)[C@H](CCC(N)=O)NC(=O)[C@H](CC(N)=O)NC(=O)[C@H](CO)NC(=O)[C@H](CCCNC(=N)N)NC(=O)[C@H](CCCNC(=N)N)NC(=O)[C@@H](NC(=O)[C@H](Cc1c[nH]c2ccccc12)NC(=O)[C@H](CCC(=O)O)NC(=O)[C@H](CCCCN)NC(=O)[C@H](CO)NC(=O)[C@H](CCC(=O)O)NC(=O)[C@H](CCC(=O)O)NC(=O)[C@H](CC(C)C)NC(=O)[C@H](CC(=O)O)NC(=O)[C@H](CO)NC(=O)[C@H](CCCCN)NC(=O)[C@@H](NC(=O)[C@H](CCCCN)NC(=O)[C@H](CC(N)=O)NC(=O)[C@H](CC(C)C)NC(=O)[C@@H](NC(=O)[C@@H](NC(=O)[C@H](CO)NC(=O)[C@@H](NC(=O)[C@H](CC(=O)O)NC(=O)[C@@H](NC(=O)[C@@H]1CCCN1C(=O)[C@H](CC(=O)O)NC(=O)[C@H](CC(C)C)NC(=O)[C@H](C)NC(=O)[C@@H](NC(C)=O)C(C)C)[C@@H](C)CC)[C@@H](C)CC)[C@@H](C)CC)C(C)C)[C@@H](C)CC)[C@@H](C)CC)C(N)=O` gave a melting temperature of 88 °C (Fusion glycoprotein F0, HRN domain (F, Human parainfluenza 3 virus, UniProt P06828); co-assembly, HPIV3 HRN, with, variable-temperature CD; PBS; 50 µM, 1:1 mixture).
For `RASILSGGK`, the ED50 was 19.1 µM (HLA class I histocompatibility antigen, A alpha chain; peptide binding, iTopia affinity; peptide).
With `CC(C)C[C@H](NC(=O)[C@@H]1CCCN1C(=O)[C@H](CCCNC(=N)N)NC(=O)[C@H](CC(C)C)NC(=O)[C@H](CCCNC(=N)N)NC(=O)[C@H](CC(=O)O)NC(=O)[C@H](Cc1ccc(O)cc1)NC(=O)[C@H](CC(=O)O)NC(=O)[C@H](CCC(=O)O)NC(=O)[C@H](CCC(N)=O)NC(=O)CN)C(=O)O` the kon was 91.9 M⁻¹ s⁻¹ (Epithelial sodium channel subunit beta; binding, bio-layer interferometry).
`CCN(CC)c1nc(C)cc(OP(=S)(OC)OC)n1` has a remaining activity of 102% (uncharacterized protein (Anopheles coluzzii, UniProt A0A6E8VQK1); enzyme activity, inhibitor; Sf9 cell homogenate; 0.0004587 µM, 0.1667 h, with: α-naphthyl acetate substrate; baseline: no inhibitor).
For `ARNCRAPRK`, the dissociation half-life was 24 min (HLA class I histocompatibility antigen, A alpha chain; peptide-MHC complex stability, iTopia off-rate; peptide).
With `Nc1nc2c(ncn2[C@H]2C[C@H](O)[C@@H](COP(=O)(O)OP(=O)(O)OP(=O)(O)O)O2)c(=O)[nH]1` the Km was 4.31 ± 1.95 µM (gag-pol K653N reverse transcriptase; nucleotide misinsertion, steady-state kinetics; K66N mutant RT, with: opposite template T).
Under “relative specific activity”, `[Ni+2]` is recorded as 0.0042 (uncharacterized protein (Bacteroides thetaiotaomicron, UniProt Q8A4G9); phosphatase activity, activator, phosphate release; 5 mM, EDTA-treated enzyme, with: substrate 25 mM; baseline: activity with Mg2+).
For `KNCRAPRKK`, the dissociation half-life was 17.4 min (HLA class I histocompatibility antigen, A alpha chain; peptide-MHC complex stability, iTopia off-rate; peptide).
The Km of `COP(=O)(OC)Oc1ccc([N+](=O)[O-])cc1` is reported as 270 ± 31 µM (Phosphotriesterase-like lactonase (Geobacillus stearothermophilus, UniProt D0VX06)).
With `RASVLSGGK` the ED50 was 17.4 µM (HLA class I histocompatibility antigen, A alpha chain; peptide binding, iTopia affinity; peptide).
The Km of `Cc1cn(COCCOP(=O)(O)OP(=O)(O)OP(=O)(O)O)c(=O)[nH]c1=O` is reported as 0.97 ± 0.28 µM (Gag-Pol polyprotein, reverse transcriptase p66 homodimer (gag-pol, Human immunodeficiency virus type 1 group M subtype B, UniProt P04585); substrate).
`CC(C)[C@H](NC(=O)[C@H](Cc1ccccc1)NC(=O)[C@@H](N)Cc1ccc(O)cc1)C(=O)N[C@H](CCCNC(=N)N)C(=O)c1nc2ccccc2s1` — result for “activity vs control”: 91% (Transmembrane protease serine 2 (TMPRSS2, Homo sapiens, UniProt O15393); enzyme activity, inhibitor; 1 nM).
`RNCRAPRKK` has a dissociation half-life of 30 min (HLA class I histocompatibility antigen, A alpha chain; peptide-MHC complex stability, iTopia off-rate; peptide).
For `CC(C)C[C@H](NC(=O)[C@H](Cc1ccccc1)NC(=O)[C@@H]1CCCN1C(=O)[C@H](CCCNC(=N)N)NC(=O)[C@H](CCC(=O)O)NC(=O)[C@@H]1CCCN1C(=O)[C@H](CO)NC(=O)[C@@H](N)CCC(=O)O)C(=O)O`, the koff was 0.0165 s⁻¹ (Epithelial sodium channel subunit beta; binding, bio-layer interferometry).
`Cc1cn([C@H]2C=C[C@@H](COP(=O)(O)OP(=O)(O)OP(=O)(O)O)O2)c(=O)[nH]c1=O` has a fold resistance of roughly 2 fold (gag-pol K653T reverse transcriptase; reverse transcriptase activity, inhibitor; HIV-1; baseline: K66T mutant over wild type).
`CC[C@H](C)[C@H](NC(=O)[C@@H](NC(=O)[C@H](CC(C)C)NC(=O)[C@H](CC(N)=O)NC(=O)[C@H](CC(=O)O)NC(=O)[C@H](CCC(=O)O)NC(=O)[C@@H](NC(=O)[C@@H](N)CCCNC(=N)N)[C@@H](C)CC)C(C)C)C(=O)N[C@H](C(=O)N[C@@H](CCCNC(=N)N)C(=O)O)[C@@H](C)CC` gave a kon of 107 M⁻¹ s⁻¹ (Epithelial sodium channel subunit beta; binding, bio-layer interferometry).
With `LARNCRAPR` the peptide binding was 62.5% (HLA class I histocompatibility antigen, A alpha chain; iTopia binding; peptide; 11 µM, 18 h, 21 °C; baseline: positive control).
`COc1cc2c3cc1Oc1cc(ccc1O)C[C@@H]1c4c(cc(OC)c(O)c4Oc4ccc(cc4)C[C@@H]3N(C)CC2)CC[N+]1(C)C` gave a response amplitude of 72% (Chrnd/Chrna1/Chrne (Mus musculus, UniProt P02716+P04756+P20782); mouse diaphragm; 0.1 µM, AChE inhibited; baseline: control).

For quick reference, copied from above:
With `CC(C)C[C@H](NC(=O)[C@@H]1CCCN1C(=O)[C@H](CCCNC(=N)N)NC(=O)[C@H](CC(C)C)NC(=O)[C@H](CCCNC(=N)N)NC(=O)[C@H](CC(=O)O)NC(=O)[C@H](Cc1ccc(O)cc1)NC(=O)[C@H](CC(=O)O)NC(=O)[C@H](CCC(=O)O)NC(=O)[C@H](CCC(N)=O)NC(=O)CN)C(=O)O` the kon was 91.9 M⁻¹ s⁻¹ (Epithelial sodium channel subunit beta; binding, bio-layer interferometry).
`CCN(CC)c1nc(C)cc(OP(=S)(OC)OC)n1` has a remaining activity of 102% (uncharacterized protein (Anopheles coluzzii, UniProt A0A6E8VQK1); enzyme activity, inhibitor; Sf9 cell homogenate; 0.0004587 µM, 0.1667 h, with: α-naphthyl acetate substrate; baseline: no inhibitor).
